# Published values collected from several papers.
# Lines come from different studies, so protocols differ.
SMILES,assay,system,conditions,quantity,result
CO[C@H]1C[C@@H]2CC[C@@H](C)[C@@](O)(O2)C(=O)C(=O)N2CCCC[C@H]2C(=O)O[C@H]([C@H](C)C[C@@H]2CC[C@@H](OC(=O)NCCOCCOCCOCCOCCOCCOCCOCCOCCC(=O)N3CCc4cc(Cn5nc(-c6ccc7oc(N)nc7c6)c6c(N)ncnc65)ccc4C3)[C@H](OC)C2)C[C@@H](O)[C@H](C)/C=C(\C)[C@@H](O)[C@@H](OC)C(=O)[C@H](C)C[C@H](C)/C=C/C=C/C=C/1C,item: treatment-related decreased appetite,patients with advanced solid tumours,"intravenous, 1.6 mg/3 mg, grade ≥3, weekly",patients with AE,0%
Nc1nc2cc(-c3ccc4ncc(C(=O)N5CCOCC5)n4c3)ccc2o1,item: Fatigue,advanced solid tumour patients,"dose not given, all grades, all doses",patients with adverse event,48%
CCN(CCO)CCCC(C)Nc1ccnc2cc(Cl)ccc12 (centres unmarked),item: Hyperuricemia grade 3,newly diagnosed glioblastoma patients,"oral, 400 mg/dose, with radiotherapy and temozolomide",patients with adverse event,14%
C=CCNc1c(O)cc2c(O)c1C[C@@H](C)C[C@H](OC)[C@H](O)[C@@H](C)/C=C(\C)[C@H](OC(N)=O)[C@@H](OC)/C=C\C=C(/C)C(=O)N2,,"unresectable or metastatic STS, GIST, other","intravenous, 150 mg/m^2",patients with diarrhoea TEAE,0%
C[C@@H]1OC(=O)NN=C1c1ccc(-c2ccc(F)cc2)c(C(F)(F)F)c1,,"patients, phase I trial","oral, 5 mg once daily, worst grade 1",patients with AST increased,0%
CC(=O)c1c(C)c2cnc(Nc3ccc(C4CCN(CCS(C)(=O)=O)CC4)cn3)nc2n(C2CCCC2)c1=O,,HR+/HER2- advanced breast cancer patients,"oral, dose not given, grade 3/4,, sample A patients",patients with neutropenia,65.4%
Cc1cc(OCCOCCC(F)(F)P(=O)(O)O)ccc1CCc1cnc2c(N)nc3cc(CCC(=O)O)ccc3c2c1,item: vomiting,adults with advanced solid tumours,"dose not given, all groups pooled, all grades",patients with non-serious AE,13.3%
COc1c(OCCCN2CCOCC2)ccc2c1N=C(NC(=O)c1cnc(N)nc1)N1CCN=C21,item: decreased lymphocyte count,patients with advanced malignancies,"intravenous, dose not given, any grade, all cohorts, with: gemcitabine",patients with adverse event,28%
N[C@@H]1c2ccccc2OC12CCN(c1cnc3c(N4CCCc5ncccc54)n[nH]c3n1)CC2,,advanced solid tumour patients,"oral, 40 mg once daily",patients with serious TEAE,75%
O=C1Nc2cc3[nH]nc(-c4ccncc4)c3cc2CN1Cc1ccccc1,CTCAE v4.03,advanced solid tumour patients,"intravenous, 4.8 mg/kg, schedules 1/2",patients with dizziness,50%
CN1CC[C@@H](c2c(O)cc(O)c3c(=O)cc(-c4ccc(C(F)(F)F)cc4Cl)oc23)[C@@H]1CO,item: Lymphopenia,relapsed AML,"oral, 100 mg, grade 3-4, intermittent dosing",patients with adverse event,0%
